Measurements from different studies.
Every numbered part comes from another study and shows a few of its results, in no order.

Study 1
Target: Fragile X messenger ribonucleoprotein 1, C-terminal low-complexity region (Fmr1, Mus musculus, UniProt P35922)
Method: RNA Bind-n-Seq
Form: RNA
Matrix: in vitro
Concentration: 200 nM
Setting: whole 134-nt RNA, ends assumed
With: 150 mM KCl
Baseline: input library
Reading: higher = stronger binding
Constant ends, left off below: GGGAGUUCUACAGUCCGACGAUC … UGGAAUUCUCGGGUGUCAAGG
Sequence	log2 enrichment
AUAUGAGUAAAAUCUGUCCCUUUUUCCCCCUUUGAAUGAGGUCUUCCAUGUUUGAGGGAAAGUCUUGCACUAUUGCAUAUAUUUUGGGGA	-0.251
CACAGACAACACGCACCCACACAGACACAGAGGGAAGGGGUUGGGAUGGGGACAGGGUGCACAGCAGGGCGGGGUAGGACCAAAGCCCCU	1.17
UGUGCUACACAUCGUAUGUACCGAAUCGGGAAAAAAAGGGGAAAAAAAGGGAAAAAAAGGGGAAAGUAUUAUGUUACGCCGUUCGGAUCU	-0.16
CCUCAAGUCCUGUGCUACACAUCGUAUGUACCGAAUCGGCGGGGCGGGGCGGAAAGUAUUAUGUUACGCCGUUCGGAUCUGCACUUCCAG	0.356
UUUGAAGGUGAUUUCUGGCCCAAUGUGUUAGAAGAGAGCAUUAAGGAACUAGAACAAGAAGAAGAGGAGAGGAAAAAGGAAGAGAGCACU	-0.335
UCCUGUGCUACACAUCGUAUGUACCGAAUCGGGGCCCCCGGGGCCCCCGGCCCCCGGGGAAAGUAUUAUGUUACGCCGUUCGGAUCUGCA	-0.353
CCUGUGCUACACAUCGUAUGUACCGAAUCGGGGUUUUUGGGGAAAGGGGAAAAAAAGGGGAAAGUAUUAUGUUACGCCGUUCGGAUCUGC	0.287
CUGUGCUACACAUCGUAUGUACCGAAUCGGGGCCCCCCCGGGCCCCCCCGGGGCCCCCCCGGAAAGUAUUAUGUUACGCCGUUCGGAUCU	-1.26
AGUCCUGUGCUACACAUCGUAUGUACCGAAUCGGGGUUUUUGGUUUUUGGUUUUUGGGAAAGUAUUAUGUUACGCCGUUCGGAUCUGCAC	-0.58
UGUGCUACACAUCGUAUGUACCGAAUCGGGGAAAAAAAGGGGUUUUUUUGGGGUUUUUGGGGAAAGUAUUAUGUUACGCCGUUCGGAUCU	0.507
CAAGUCCUGUGCUACACAUCGUAUGUACCGAAUCGGAAAAAGGAAAAAGGUUUGGAAAGUAUUAUGUUACGCCGUUCGGAUCUGCACUUC	-1.15
GUAGCUGCUCCAGUGGGCCCAGUGGGCCCCACUCCUACAGUUUUGCCCAUGGGAGCCCCUGUUCCCCGGCCUCGUGGUCCCCCACCGCCC	-0.0497
UGGCCCUGGUGGCAUGCGGGGAGGAAGAGGUGGCCUCAUGGAUCGUGGUGGUCCCGGUGGAAUGUUCAGAGGUGGCCUUGGUGGAGACAG	-0.0474
ACCAUGCAGGUGGGCAUCUUUGGGAAGUGGGGCAAGGGGGGGAUAGGGAUGGGGGUAACACUUUGGGAACAGGUGGUCCCAGGUCGUUUC	0.645

Study 2
Target: Sal-like protein 4, full length isoform A (SALL4, Homo sapiens, UniProt Q9UJQ4, residues 1-1053)
Sequence of UniProt Q9UJQ4 (whole entry, looked up): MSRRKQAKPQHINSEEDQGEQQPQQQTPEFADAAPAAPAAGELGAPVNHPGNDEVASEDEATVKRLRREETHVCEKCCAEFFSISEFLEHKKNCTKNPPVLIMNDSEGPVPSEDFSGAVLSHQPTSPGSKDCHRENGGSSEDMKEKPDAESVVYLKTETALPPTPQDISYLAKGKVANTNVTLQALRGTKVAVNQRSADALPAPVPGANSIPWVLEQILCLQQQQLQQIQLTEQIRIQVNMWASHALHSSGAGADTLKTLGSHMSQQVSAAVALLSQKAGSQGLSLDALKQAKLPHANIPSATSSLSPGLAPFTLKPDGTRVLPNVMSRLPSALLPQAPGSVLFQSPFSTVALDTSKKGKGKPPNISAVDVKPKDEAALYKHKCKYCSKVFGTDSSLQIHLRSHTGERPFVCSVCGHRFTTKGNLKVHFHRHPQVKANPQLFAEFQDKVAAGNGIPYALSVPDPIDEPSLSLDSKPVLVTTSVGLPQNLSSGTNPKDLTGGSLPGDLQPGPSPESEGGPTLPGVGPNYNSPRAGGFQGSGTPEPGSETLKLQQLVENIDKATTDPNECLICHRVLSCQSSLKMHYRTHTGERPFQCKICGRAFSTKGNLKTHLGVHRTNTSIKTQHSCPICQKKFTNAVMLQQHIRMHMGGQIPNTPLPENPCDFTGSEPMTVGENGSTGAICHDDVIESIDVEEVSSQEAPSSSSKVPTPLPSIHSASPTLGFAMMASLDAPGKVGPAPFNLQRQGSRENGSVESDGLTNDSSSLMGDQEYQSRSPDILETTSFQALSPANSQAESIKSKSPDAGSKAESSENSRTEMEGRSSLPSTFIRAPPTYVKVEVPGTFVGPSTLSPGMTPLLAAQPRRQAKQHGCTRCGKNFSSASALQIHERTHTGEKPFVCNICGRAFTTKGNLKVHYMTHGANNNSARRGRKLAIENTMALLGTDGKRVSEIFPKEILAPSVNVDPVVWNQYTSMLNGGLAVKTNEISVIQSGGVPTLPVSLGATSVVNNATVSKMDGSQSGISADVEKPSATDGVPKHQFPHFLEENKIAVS
Method: universal PBM
Form: double-stranded DNA, one strand shown
Matrix: in vitro
Concentration: 600 nM
Setting: 8-mer, flanks averaged, mean of replicates
Reading: higher = stronger binding
Sequence	E-score
GCGGCCCA	-0.326
ATAAAGAA	0.291
AATTCCCA	0.175
ATTAGTCC	0.186
ATCTGTAG	0.0425
ACCAGGGA	-0.292
CCACCACC	-0.249
CCTTAGAC	0.0175
AAGTCATT	0.128
CCGAGATC	-0.305
AGGGTCTG	-0.302
GGATGCAC	-0.162
AATAGCCA	0.189
TCACGTGA	0.0779
GAATAATA	0.379
ATAGGGGA	0.0633
AACTTCGC	-0.102
AGTAGACC	-0.0831
ACGGGACC	-0.318
CTGTCGGC	-0.294
ACGCCCTG	-0.221
ATGTTAAA	0.345
CTCACGCA	-0.0166

Study 3
Target: Prothrombin, mature alpha-thrombin (F2, Homo sapiens, UniProt P00734)
Method: aptamer microarray, sandwich
Form: DNA with 2'F-ANA
Matrix: in vitro
Concentration: 200 nM
Setting: whole 15-mer aptamer, many near background
With: Cy3 exosite-II aptamer, 400 nM
Reading: higher = stronger binding
Sequence: GGTTGGTGTGGTTGG
Modification	mean fluorescence intensity
2'F-ANA at 1 2 3 4 5 6 7 8 10 11 12 14	44.1 a.u.
2'F-ANA at 5 7 9 10 13 15	45.5 a.u.
2'F-ANA at 2 4 7 9 10 11 12 13 14	62.3 a.u.
2'F-ANA at 1 2 4 8 9 10 12	127 a.u.
2'F-ANA at 2 6 8 11 12 14 15	158 a.u.
2'F-ANA at 1 4 7 10 11 13 14	60.6 a.u.
2'F-ANA at 1 6 7 12 14 15	69.5 a.u.
2'F-ANA at 2 4 6 9 15	334 a.u.
2'F-ANA at 3 5 9 10 12 14 15	87.5 a.u.
2'F-ANA at 1 3 5 6 8 9 10	53.4 a.u.
2'F-ANA at 2 6 8 9 11 12 13 14 15	133 a.u.
2'F-ANA at 1 4 6 7 10 12	67.9 a.u.
2'F-ANA at 1 2 3 5 8 9 12	175 a.u.
2'F-ANA at 3 4 5 8 13 14 15	49.7 a.u.
2'F-ANA at 1 3 5 7 11 13 14 15	50.6 a.u.
2'F-ANA at 1 2 7 8 9 10 12 13	62.6 a.u.
2'F-ANA at 3 4 5 7 9 10 12 13 14 15	47.4 a.u.
2'F-ANA at 1 2 3 4 5 7 10 11 13 15	51.8 a.u.
2'F-ANA at 1 3 4 6 7 8 11 12 13 14	82.9 a.u.
2'F-ANA at 2 3 6 7 15	754 a.u.
2'F-ANA at 2 5 6 9 10 12 15	51.4 a.u.
2'F-ANA at 3 4 5 6 7 11 13	63 a.u.
2'F-ANA at 2 3 5 6 8 10 14 15	126 a.u.
2'F-ANA at 1 2 5 6 7 8 10 14	46.6 a.u.
2'F-ANA at 2 3 6 8 9 13 14	402 a.u.

Study 4
Target: RING finger protein unkempt homolog, zinc fingers 1-6, GST-SBP tag (UNK, Homo sapiens, UniProt Q9C0B0, residues 30-357)
Method: RNA Bind-n-Seq
Form: RNA
Matrix: in vitro
Concentration: not given
Setting: RNA with constant flanks, ends assumed
Baseline: input RNA pool
Reading: higher = stronger binding
Constant ends, left off below: GGGAGUUCUACAGUCCGACGAUC … CAACAGAGGAUUGAGCAUCA
Target sequence (chain): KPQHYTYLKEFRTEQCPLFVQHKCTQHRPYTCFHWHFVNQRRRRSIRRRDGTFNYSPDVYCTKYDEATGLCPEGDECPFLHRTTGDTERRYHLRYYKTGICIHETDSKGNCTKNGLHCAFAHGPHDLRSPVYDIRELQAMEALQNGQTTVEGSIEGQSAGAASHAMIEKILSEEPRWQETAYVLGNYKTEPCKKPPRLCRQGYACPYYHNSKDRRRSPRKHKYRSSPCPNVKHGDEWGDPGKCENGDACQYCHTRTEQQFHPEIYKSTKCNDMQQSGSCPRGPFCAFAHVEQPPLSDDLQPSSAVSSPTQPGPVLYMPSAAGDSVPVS
Sequence	bound/input enrichment [ratio]
AUGUCACAGUGUUAGCACCCUGCAUGGAUGUGGUCAAAAUAUCAUUCAAGUUGUACUUCCCCGUUUUUAUCAUCAUACUACUAUGUCAUAUGAUUUUCAGACUAAUUUAACAUGAGAAAU	0.303
AUCACUAUUGGAUCCAUCUCUUUCCUUCUGGGAGUUGUACUGCUAGUAAUUAAUCAUAAAUACCGAAACAGUAGUAACACUGCUGACAUCACCAUUUAAUUUUAUAUUCUGAAACCAAAU	0.849
AUUCAUUUUUAAUUUUAAUUUUAUUUUAUACAAUGUGUAGACAGUUCCCUGUUCUCUGCAUUCCGAAGUAUACACAAUAUAAAUCUGUUAAUUCUGUAAGUAAUUUUUAUAAUUAUGAUG	4.69
CCUGACAGUAUGCUGGCGCACAUGUUCAAGGACAAAGGUGUCUGGGGAAAUAAGCAAGAUCACCGAGGAGCAUUCUUAAUUGACCGAAGUCCUGAGUACUUUGAACCUAUUUUGAACUAC	0.148
GGUGGCUCUUCUCUGCUCAUCGAGGCAUUAUCUAACAGUAGCCACAAGUGCCAAGCAGACAUCCGACAUAUCCUGAAUAAGAAUGGAGGAGUGAUGGCUGUAGGAGCUCGUCACUCUUUU	0.122
CAUUUGAUGUAUGCGGUCAGAGAAGAAGUGGAGGUCCUCAAAGAGCAAAUCAAAGAACUAACCGAGAAAAAUUCCCAGCUGGAGCAGGAGAACAAUCUGCUGAAGACACUGGCCAGUCCU	0.292
AGUAUUAAAAAGAUCAUACAUGUGCUGGAGAAGGUGCAGUUUCUUGAGCAAGAAGCCGAAGAGUUUGCCGGAAAAAAGACAGACAAAGCGUAUUGGCUUCUGGAAGAAAUGCUGACAAAG	0.196
GCCAUCUAUGACAUCUGUCGUAGAAACCUCGAUAUUGAGCGUCCAACCUAUACUAACCUGAACCGGUUAAUAGGUCAAAUUGUGUCCUCCAUCACUGCUUCCCUGAGAUUUGAUGGAGCC	0.0818
AGCAGCGGAGAGUUUCUGGGGCGCACCUCCAAGAGCUGGGGUCUGAUCUUGCUCUUCUACCCCGUUUUUUAUGGGUUCUUGGCUGCACUCUUCACAUUCACAAUGUGGGCCAUGCUCCAG	0.142
AGUCGAGGCGCAACAAGACCCAACGGGCCAAAUACGGGAAAUAAAAUAUGCCAGUUCAAACCCGUACUUCUGGGAGAGUCCGCUGUUGGCAAAUCAAGCCUAGUGCUUCGUUUUGUGAAA	0.164

Study 5
Target: Histone acetyltransferase KAT6A, both winged helices, GST fusion (KAT6A, Homo sapiens, UniProt Q92794, residues 1-181)
Method: protein binding microarray
Form: double-stranded DNA, one strand shown
Matrix: in vitro
Concentration: not given
Setting: 8-mer, flanks averaged, mean of 2 arrays, mostly near background
Baseline: not given
Reading: higher = stronger binding
Construct (chain): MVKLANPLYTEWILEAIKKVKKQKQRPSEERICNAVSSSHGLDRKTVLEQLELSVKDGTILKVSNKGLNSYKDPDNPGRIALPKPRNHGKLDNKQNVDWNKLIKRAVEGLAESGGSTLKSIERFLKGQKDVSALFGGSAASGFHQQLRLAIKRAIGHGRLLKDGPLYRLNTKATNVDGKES
Sequence	E-score
CGCTCTGA	0.2
CAATGGGC	-0.108
AGCGAATG	-0.00282
ACATGGCA	-0.0714
ATCGCCCG	0.203
GATAATCA	0.0612
CCCCTCCA	-0.193
AATCCTTA	-0.242
CGGATTCC	0.164
CACGTGCC	-0.114
ATTGGGGC	-0.16
GGTGGACA	-0.0309
ACTTTGTG	-0.0839
AGCTAAGC	-0.11
GCTTGACA	0.0324
AGGAGAGA	-0.143
ATATTACA	-0.0381
GGGCTTAC	-0.101
ACTTCATC	-0.0985
ATACAGAA	-0.0464
ACACGATG	-0.086
CCAACAGA	-0.145

Study 6
Organism: Saccharomyces cerevisiae
Read-out: binding
Method: competitive growth deep sequencing
Form: peptide
Strain: cyclin E1-Cln2 fusion strain
Concentration: concentration not given
Setting: peptide tiling library
Reading: direction not given
Molecule	growth enrichment score
TARRIFQEPTEPKTKA	-0.0608
EPRNLLSLFEDTLDPT	1.24
VLLKRLQDVVSERANH	-0.0662
PLRKAKRARLCSSSSS	0.529
PARRRLRLSVDEVSSP	0.101
RRVLCFDS	0.421
GQLVIPLDELTLDTSF	1.33
FREFEVEKQTAEETGL	1.14
KPITLDTTDFQESFVT	0.121
SAVPLILPQAPSGPSY	1.4
RKLHFEDEVT	2.18
KRCATPVIIDEILPSK	0.866
